Measurements from different studies.
Each line is one published result; not all experiments were run side by side. ± gives the spread as reported.

SMILES	assay	system	conditions	how to read	inhibition
Cc1cnc(N2CC3(CCOCC3)C2)c(C(=O)Nc2ccc(C(=O)N3CCc4cc(C(=O)Nc5c(C)cccc5F)sc4-c4ccccc43)cc2)c1	item: IP-10	human RSV infection, plasma	dose not given, AUC, ITT-IS population	baseline: placebo	-30%
CN[C@@H]1COc2c(S(=O)(=O)NC(=O)Nc3c4c(cc5c3CCC5)CCC4)cnn2C1	item: IL-1β	human participants, whole blood ex vivo	900 mg single dose, 336 h, with: LPS/ATP	baseline: baseline	6%
COc1cc(C(=O)NS(=O)(=O)c2ccccc2C)ccc1Cc1cn(C)c2ccc(NC(=O)OC3CCCC3)cc12	P-selectin exposure, flow cytometry, item: P-selectin	human platelet-rich plasma	3 µM, with: CRP 5 µg/mL	–	5%
NCC(=O)Nc1cncc(-c2nn3c(=O)cc(N4CCNCC4)nc3s2)c1	ADP-induced platelet aggregation, light transmission aggregometry	human, stable CAD on aspirin, ex vivo platelets	subcutaneous, 0.04 mg/kg, 240 min post-dose, median value, with: ADP 20 µM	–	0%
CC[C@@H]1[C@H](F)C(=O)N[C@@H]1COc1nccc2cc(C(N)=O)c(OC)cc12	ATP-site probe binding, ActivX profiling, item: MARK2, MARK3	THP-1 cell lysate	0.2 mM, Lys2 site	–	2.7%
CN(C)c1ncnc2c1ncn2[C@@H]1O[C@H](CCl)[C@@H](NC(=O)[C@@H](CSC(c2ccccc2)c2ccccc2)NC(=O)OC(C)(C)C)[C@H]1O	protein synthesis, item: GFP	human cell-free translation	25 µM	–	0%
O=C1Nc2ccccc2C1=Cc1ccccn1	platelet aggregation	platelet-rich plasma	1 µM, with: ADP 5 µM	–	26.5%
CSCCNc1nc(SCCC(F)(F)F)nc2c1ncn2[C@@H]1O[C@H](COP(=O)(O)OP(=O)(O)C(Cl)(Cl)P(=O)(O)O)[C@@H](O)[C@H]1O	platelet aggregation, light transmission aggregometry	human patients, platelet-rich plasma	dose not given, 4 to 6 h, with: TRAP 5 µM	–	31.2 ± 32.1%

For quick reference, copied from above:
SMILES	assay	system	conditions	how to read	inhibition
NCC(=O)Nc1cncc(-c2nn3c(=O)cc(N4CCNCC4)nc3s2)c1	ADP-induced platelet aggregation, light transmission aggregometry	human, stable CAD on aspirin, ex vivo platelets	subcutaneous, 0.04 mg/kg, 240 min post-dose, median value, with: ADP 20 µM	–	0%
